Published values collected from several papers.
A part holds a random share of what one study measured.

Study 1
Target: Interferon regulatory factor 7, full length, phosphomimetic (IRF7, Homo sapiens, UniProt Q92985, residues 1-503, S471D/S472D/S475D/S476D/S477D/S483D/S484D/S487D)
Sequence of UniProt Q92985 (whole entry, unmodified, looked up): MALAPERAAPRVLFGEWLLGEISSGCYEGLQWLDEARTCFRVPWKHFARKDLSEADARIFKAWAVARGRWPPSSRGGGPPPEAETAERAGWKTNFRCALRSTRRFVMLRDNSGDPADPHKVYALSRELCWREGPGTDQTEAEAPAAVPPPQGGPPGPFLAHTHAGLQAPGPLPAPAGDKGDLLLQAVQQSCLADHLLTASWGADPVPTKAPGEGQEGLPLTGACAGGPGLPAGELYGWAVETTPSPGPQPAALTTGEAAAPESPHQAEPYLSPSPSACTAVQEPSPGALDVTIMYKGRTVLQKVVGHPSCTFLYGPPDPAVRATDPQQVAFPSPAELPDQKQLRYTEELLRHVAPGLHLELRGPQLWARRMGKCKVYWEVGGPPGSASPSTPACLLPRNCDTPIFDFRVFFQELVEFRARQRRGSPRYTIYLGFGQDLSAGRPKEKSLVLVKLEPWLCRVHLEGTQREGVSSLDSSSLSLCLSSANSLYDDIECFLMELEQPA
Method: protein-binding microarray
Form: double-stranded DNA, one strand shown
Matrix: in vitro
Tested at: 2200 nM top
Notes: 60-bp whole probe
Together with: salmon DNA 0.4 mg/ml
Reference: random background probes
Direction: higher = stronger binding
Constant ends, left off below: GCCTAGCAC … GTCTTGATTCGCTTGACGCTGCTG
| Sequence | fitted relative affinity [z-score] |
| --- | --- |
| CTGCACTCCAGTCTGGGAGAGTGCTAG | -0.0577 |
| TTAGATATCGGGTCTCGATTAGTGCTA | 0.365 |
| TTAGATATCGGCACTGGATTAGTGCTA | -0.403 |
| TCATCGATTTCTCTTTCCACTGTGCTA | 3.42 |
| GACGATTTCAGTTCCGACACGTGCTAG | 1.94 |
| GACGATATCGGGTTTCGCGACGTGCTA | 1.01 |
| GACGGACGGCTACTGCTGACGTGCTAG | -0.874 |
| GACGATTCCAGTGTCGAGACGTGCTAG | 0.467 |

Study 2
Target: PABPC1L2, full length, GST fusion (mouse, UniProt A0ABA7IW68)
Method: RNAcompete
Form: RNA
Matrix: in vitro
Tested at: 20 nM
Notes: 7-mer, probes averaged, single round
Reference: mean of 7-mers
Direction: higher = stronger binding
Construct (chain): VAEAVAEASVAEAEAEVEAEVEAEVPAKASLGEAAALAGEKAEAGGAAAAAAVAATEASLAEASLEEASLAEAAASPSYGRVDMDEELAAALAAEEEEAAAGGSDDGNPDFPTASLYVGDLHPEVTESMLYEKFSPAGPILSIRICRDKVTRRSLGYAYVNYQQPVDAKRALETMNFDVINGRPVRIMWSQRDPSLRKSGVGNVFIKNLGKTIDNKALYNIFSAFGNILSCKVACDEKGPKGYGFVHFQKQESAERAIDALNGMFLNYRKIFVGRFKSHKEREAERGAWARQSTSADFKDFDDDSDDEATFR
| Sequence | 7-mer Z-score |
| --- | --- |
| AUCGGUA | -0.112 |
| GAAGCAA | 0.262 |
| CGAGCGA | 0.207 |
| CAUACGC | -0.228 |
| UAACCAA | 0.215 |
| AUUAUGG | 0.0569 |
| CGCUCCC | -0.347 |
| CACCUCA | -0.186 |

Mixed results
| Substance | target or system | test | system | setting | endpoint | value |
| --- | --- | --- | --- | --- | --- | --- |
| CLTB (Homo sapiens, UniProt P09497) | CLTC (Homo sapiens, UniProt Q00610) | cross-linking MS | cell fractions | together with: DMTMM | cross-linked residues | K204 to E1187 |
| VYAPAGVEL | HLA class I histocompatibility antigen, C alpha chain, allele C*04:01 (Homo sapiens, UniProt P10321) | peptide-MHC binding | peptide | concentration not given | binding | inactive |
| CDH2 (Homo sapiens, UniProt P19022) | CTNNA1 (Homo sapiens, UniProt P35221) | cross-linking MS | – | hits only | interaction screen | cross-linked |
| SNRPD3 (Homo sapiens, UniProt P62318) | SF3B2 (Homo sapiens, UniProt Q13435) | cross-linking MS | cell fractions | together with: DHSO | cross-linked residues | E59 to E345 |
| HSPA9 (Homo sapiens, UniProt P38646) | GRPEL1 (Homo sapiens, UniProt Q9HAV7) | cross-linking MS | – | hits only | interaction screen | cross-linked |

Excerpt of the above (mixed results):
| Substance | target or system | test | system | setting | endpoint | value |
| --- | --- | --- | --- | --- | --- | --- |
| CDH2 (Homo sapiens, UniProt P19022) | CTNNA1 (Homo sapiens, UniProt P35221) | cross-linking MS | – | hits only | interaction screen | cross-linked |
| SNRPD3 (Homo sapiens, UniProt P62318) | SF3B2 (Homo sapiens, UniProt Q13435) | cross-linking MS | cell fractions | together with: DHSO | cross-linked residues | E59 to E345 |
| HSPA9 (Homo sapiens, UniProt P38646) | GRPEL1 (Homo sapiens, UniProt Q9HAV7) | cross-linking MS | – | hits only | interaction screen | cross-linked |
